Experimental data of several laboratories.
Numbered parts are unrelated; each lists some results of a single study. Values joined by “and” are separate records of one study, mostly repeats; a detail may differ.
Sequence of UniProt Q15418 (whole entry, looked up): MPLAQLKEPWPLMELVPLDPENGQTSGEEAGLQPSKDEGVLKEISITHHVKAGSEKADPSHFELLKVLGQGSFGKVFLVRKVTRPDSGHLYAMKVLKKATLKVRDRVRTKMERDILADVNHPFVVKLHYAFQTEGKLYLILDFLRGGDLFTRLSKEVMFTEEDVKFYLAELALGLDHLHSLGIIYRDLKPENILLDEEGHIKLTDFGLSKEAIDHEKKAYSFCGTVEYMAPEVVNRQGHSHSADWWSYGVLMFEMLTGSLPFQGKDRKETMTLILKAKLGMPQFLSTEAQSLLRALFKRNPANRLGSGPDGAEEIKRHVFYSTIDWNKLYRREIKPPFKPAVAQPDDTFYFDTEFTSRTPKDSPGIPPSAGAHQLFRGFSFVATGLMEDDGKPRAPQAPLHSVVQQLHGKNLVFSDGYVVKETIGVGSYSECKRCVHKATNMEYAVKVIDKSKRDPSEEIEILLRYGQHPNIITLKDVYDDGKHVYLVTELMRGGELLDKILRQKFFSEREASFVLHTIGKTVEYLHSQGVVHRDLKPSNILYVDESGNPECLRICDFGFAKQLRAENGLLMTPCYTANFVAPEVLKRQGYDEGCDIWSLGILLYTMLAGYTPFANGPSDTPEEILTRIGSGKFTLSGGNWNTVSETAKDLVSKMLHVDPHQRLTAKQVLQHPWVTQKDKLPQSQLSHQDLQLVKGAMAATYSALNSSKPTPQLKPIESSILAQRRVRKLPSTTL
Sequence of UniProt O14965 (whole entry, looked up): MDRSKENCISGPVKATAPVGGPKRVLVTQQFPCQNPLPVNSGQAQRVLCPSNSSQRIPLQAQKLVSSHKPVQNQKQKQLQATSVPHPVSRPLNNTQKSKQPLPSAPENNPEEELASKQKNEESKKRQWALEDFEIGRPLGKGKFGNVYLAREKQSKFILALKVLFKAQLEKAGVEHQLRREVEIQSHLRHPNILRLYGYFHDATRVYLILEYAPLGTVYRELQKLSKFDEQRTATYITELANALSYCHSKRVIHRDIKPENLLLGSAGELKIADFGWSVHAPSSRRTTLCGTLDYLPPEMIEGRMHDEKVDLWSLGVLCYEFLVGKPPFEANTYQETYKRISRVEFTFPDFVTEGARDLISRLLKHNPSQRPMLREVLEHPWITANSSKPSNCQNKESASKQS
Sequence of UniProt Q8N568 (whole entry, looked up): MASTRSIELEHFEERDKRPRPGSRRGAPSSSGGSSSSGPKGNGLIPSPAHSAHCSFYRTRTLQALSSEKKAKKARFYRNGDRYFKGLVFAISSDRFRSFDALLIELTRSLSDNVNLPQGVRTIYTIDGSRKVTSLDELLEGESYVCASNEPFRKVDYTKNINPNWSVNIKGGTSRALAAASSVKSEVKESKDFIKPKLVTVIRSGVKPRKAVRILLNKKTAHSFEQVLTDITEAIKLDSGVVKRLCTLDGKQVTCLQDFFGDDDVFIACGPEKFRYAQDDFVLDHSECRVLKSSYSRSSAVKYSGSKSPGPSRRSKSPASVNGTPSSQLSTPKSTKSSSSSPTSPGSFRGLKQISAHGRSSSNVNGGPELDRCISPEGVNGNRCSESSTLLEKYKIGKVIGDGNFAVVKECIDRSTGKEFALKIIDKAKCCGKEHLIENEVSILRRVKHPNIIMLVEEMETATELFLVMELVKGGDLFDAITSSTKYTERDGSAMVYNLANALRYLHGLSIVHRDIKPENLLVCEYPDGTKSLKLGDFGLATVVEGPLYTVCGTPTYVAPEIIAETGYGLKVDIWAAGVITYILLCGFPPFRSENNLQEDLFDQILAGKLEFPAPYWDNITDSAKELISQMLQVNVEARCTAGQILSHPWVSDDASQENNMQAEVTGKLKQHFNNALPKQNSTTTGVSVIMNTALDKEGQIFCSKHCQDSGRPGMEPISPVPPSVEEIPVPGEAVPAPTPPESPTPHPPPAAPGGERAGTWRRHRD
Sequence of UniProt P57059 (whole entry, looked up): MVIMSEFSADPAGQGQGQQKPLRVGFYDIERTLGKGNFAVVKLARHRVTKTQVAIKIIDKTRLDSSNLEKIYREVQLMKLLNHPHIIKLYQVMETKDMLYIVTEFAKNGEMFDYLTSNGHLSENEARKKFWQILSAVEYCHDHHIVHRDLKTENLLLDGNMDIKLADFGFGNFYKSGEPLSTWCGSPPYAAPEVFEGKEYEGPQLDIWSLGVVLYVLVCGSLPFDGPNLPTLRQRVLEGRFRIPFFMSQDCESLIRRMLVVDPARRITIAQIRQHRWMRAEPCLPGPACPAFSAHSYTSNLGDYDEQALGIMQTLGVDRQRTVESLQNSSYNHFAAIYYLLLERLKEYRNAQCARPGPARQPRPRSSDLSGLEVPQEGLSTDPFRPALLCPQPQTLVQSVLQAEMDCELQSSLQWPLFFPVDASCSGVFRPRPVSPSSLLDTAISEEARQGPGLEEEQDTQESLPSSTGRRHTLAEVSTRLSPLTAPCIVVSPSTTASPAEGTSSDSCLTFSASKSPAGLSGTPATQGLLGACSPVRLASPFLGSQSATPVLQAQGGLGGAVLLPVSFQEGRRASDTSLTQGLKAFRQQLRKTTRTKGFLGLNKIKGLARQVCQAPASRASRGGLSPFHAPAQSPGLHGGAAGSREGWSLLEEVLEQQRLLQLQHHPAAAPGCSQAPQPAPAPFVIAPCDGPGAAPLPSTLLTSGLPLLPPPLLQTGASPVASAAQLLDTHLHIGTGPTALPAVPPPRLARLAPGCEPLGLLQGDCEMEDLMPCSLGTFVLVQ

Study 1
Cell line: A-375
Tested at: 100 µM
Time: 36 h
With `CNCCC=C1c2ccccc2CCc2ccccc21` the viability was -0.834%.
With `CC1COc2c(N3CCN(C)CC3)c(F)cc3c(=O)c(C(=O)O)cn1c23` (centres unmarked) the viability was 107%.
The viability of `O=c1ccc2ccc(O)c(O)c2o1` is reported as 94.1%.
`O=c1cc(-c2ccc(O)c(O)c2)oc2cc(O)cc(O)c12` gave a viability of 24.7%.
With `CC[C@@H]1C(=O)OC[C@@H]1Cc1cncn1C` the viability was 110%.
The viability of `NCCCNCCSP(=O)(O)O` is reported as 106%.

Study 2
Target: Tyrosine-protein kinase JAK2 (JAK2, Homo sapiens, UniProt O60674)
Sequence of UniProt O60674 (whole entry, looked up): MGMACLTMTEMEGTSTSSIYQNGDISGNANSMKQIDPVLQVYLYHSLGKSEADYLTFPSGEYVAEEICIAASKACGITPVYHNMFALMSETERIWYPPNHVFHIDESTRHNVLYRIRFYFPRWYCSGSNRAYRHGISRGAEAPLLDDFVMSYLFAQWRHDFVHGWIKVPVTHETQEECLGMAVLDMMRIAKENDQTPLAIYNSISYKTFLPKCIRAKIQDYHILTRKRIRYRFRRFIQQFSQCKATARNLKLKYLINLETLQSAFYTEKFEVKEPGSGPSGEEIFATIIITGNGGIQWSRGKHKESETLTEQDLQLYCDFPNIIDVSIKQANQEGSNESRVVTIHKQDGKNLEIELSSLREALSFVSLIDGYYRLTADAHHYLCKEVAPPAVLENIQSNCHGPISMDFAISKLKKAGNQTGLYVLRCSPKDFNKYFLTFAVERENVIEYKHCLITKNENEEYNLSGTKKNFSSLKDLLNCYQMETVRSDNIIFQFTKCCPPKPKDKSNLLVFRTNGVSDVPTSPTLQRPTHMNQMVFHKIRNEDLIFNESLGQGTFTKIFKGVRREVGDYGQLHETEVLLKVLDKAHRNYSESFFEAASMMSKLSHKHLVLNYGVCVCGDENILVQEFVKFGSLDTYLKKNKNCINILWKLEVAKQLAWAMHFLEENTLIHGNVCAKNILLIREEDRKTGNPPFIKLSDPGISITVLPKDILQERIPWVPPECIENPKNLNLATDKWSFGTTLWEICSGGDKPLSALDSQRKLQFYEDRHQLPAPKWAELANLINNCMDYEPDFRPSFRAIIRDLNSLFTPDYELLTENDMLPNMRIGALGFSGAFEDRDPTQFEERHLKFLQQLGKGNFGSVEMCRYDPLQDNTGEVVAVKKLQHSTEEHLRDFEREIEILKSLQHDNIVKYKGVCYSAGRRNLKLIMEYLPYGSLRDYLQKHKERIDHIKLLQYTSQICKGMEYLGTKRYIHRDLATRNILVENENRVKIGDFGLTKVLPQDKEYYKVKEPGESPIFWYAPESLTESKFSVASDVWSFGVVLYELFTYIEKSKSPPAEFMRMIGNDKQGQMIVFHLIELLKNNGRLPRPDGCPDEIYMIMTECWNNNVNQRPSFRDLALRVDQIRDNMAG
Read-out: enzyme activity
Mode: inhibitor
Tested at: 0.5 µM
Reference: control
`C#Cc1cccc(Nc2ncnc3cc(OCCOC)c(OCCOC)cc23)c1` gave a remaining activity of 99.1%.
With `O=c1c2ccccc2[nH]c(=S)n1CCN1CCC(=C(c2ccc(F)cc2)c2ccc(F)cc2)CC1` the remaining activity was 92%.
With `NCCNc1ncc(C(N)=O)c(Nc2cccc(C(F)(F)F)c2)n1` the remaining activity was 96.7%.
With `O=S(=O)(c1cccc2cnccc12)N1CCCNCC1` the remaining activity was 107%.
The remaining activity of `O=C(Nc1cccc(Nc2cc(Nc3cccc(C(F)(F)F)c3)ncn2)c1)C1CC1` is reported as 99.5%.
For `COc1cc2ncnc(Nc3ccc(Oc4ccccc4)cc3)c2cc1OC`, the remaining activity was 95.6%.
The remaining activity of `N#CC(C#N)=C(N)/C(C#N)=C/c1ccc(O)cc1` is reported as 102%.
With `Oc1ccc(-c2nc(-c3ccncc3)c(-c3ccc(F)cc3)[nH]2)cc1` the remaining activity was 96.2%.
The remaining activity of `O=C(CCCc1ccc(-c2ccccc2F)cc1)Nc1ccc(O)cc1` is reported as 98.5%.
`COc1ccc(CNC(=O)Nc2ncc([N+](=O)[O-])s2)cc1` gave a remaining activity of 104%.
With `Nc1ccc2ncnc(NCCc3ccc(Oc4ccccc4)cc3)c2c1` the remaining activity was 103%.
For `Nc1[nH]nc2nc3ccccc3nc12`, the remaining activity was 105%.
For `Nc1ncnc2n[nH]c(Nc3ccc(F)cc3)c12`, the remaining activity was 105%.
`CO[C@H]1C[C@@H]2CC[C@@H](C)[C@@](O)(O2)C(=O)C(=O)N2CCCC[C@H]2C(=O)O[C@H]([C@H](C)C[C@@H]2CC[C@@H](O)[C@H](OC)C2)CC(=O)[C@H](C)/C=C(\C)[C@@H](O)[C@@H](OC)C(=O)[C@H](C)C[C@H](C)/C=C/C=C/C=C/1C` gave a remaining activity of 97.5%.

Study 3
Structure (SMILES): CNC(=O)Nc1ccc2c(c1)C1(CC2)OC(=O)N(CC(=O)N(Cc2ccc(F)cc2)[C@@H](C)C(F)(F)F)C1=O (single isomer, unassigned)
Tested at: 0.1 µM
Reference: DMSO
For sample C colorectal tumour organoid: viability read 97.4%.
For sample I colorectal tumour organoid; replicate 1: viability read 122%.
For sample B colorectal tumour organoid: viability read 121%.
It gave 116% and 131% for viability (normal-adjacent epithelium patient-derived organoids sample G; CellTiter-Glo).
It gave 102% for viability (sample BA colorectal tumour organoid).

Study 4
Compound: CO[C@@H]1[C@H](N(C)C(=O)c2ccccc2)C[C@H]2O[C@]1(C)n1c3ccccc3c3c4c(c5c6ccccc6n2c5c31)C(=O)NC4
Mode: inhibitor
Tested at: 1 µM
It gave 98% for inhibition (Aurora kinase A (AURKA, Homo sapiens, UniProt O14965); enzyme activity).
Ribosomal protein S6 kinase alpha-1, kinase domain 1 (RPS6KA1, Homo sapiens, UniProt Q15418) — inhibition: 86%.
DCLK2 (Homo sapiens, UniProt Q8N568); enzyme activity — inhibition: 0%.
SIK1 (Homo sapiens, UniProt P57059); enzyme activity — inhibition: 95%.
